Measured values from different studies.
Protocols differ between the studies behind these lines. ± marks the error that the study gave.
DRD2: D(2) dopamine receptor (DRD2, Homo sapiens, UniProt P14416)
Chain of UniProt P14416 (whole entry, unmodified, looked up): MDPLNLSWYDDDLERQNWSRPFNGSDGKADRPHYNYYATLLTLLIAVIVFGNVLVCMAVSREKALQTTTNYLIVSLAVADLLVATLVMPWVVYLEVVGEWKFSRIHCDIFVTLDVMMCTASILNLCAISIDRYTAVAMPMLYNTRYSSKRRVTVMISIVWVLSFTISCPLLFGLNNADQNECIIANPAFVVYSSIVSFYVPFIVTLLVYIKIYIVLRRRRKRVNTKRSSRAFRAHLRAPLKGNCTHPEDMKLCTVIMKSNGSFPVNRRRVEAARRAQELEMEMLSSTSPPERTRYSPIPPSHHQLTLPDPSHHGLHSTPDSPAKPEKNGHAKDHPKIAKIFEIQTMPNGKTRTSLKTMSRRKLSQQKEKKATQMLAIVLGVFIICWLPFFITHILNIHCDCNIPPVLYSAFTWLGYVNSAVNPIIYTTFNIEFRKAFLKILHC

For `COc1cc2c(cc1OC)C(=O)N(CCCCN1CCN(c3ccccc3OC)CC1)C2`, the IC50 was 3.98 µM (DRD2; antagonist).
The EC50 of `CCn1c(-c2nc3cc(C(=O)N4CCC[C@@H](N)C4)cc(OC)c3n2C)cc2cccnc21` is reported as over 100 µM (DRD2; agonist, GTPγS binding).
For `CS(=O)(=O)C1(CNCc2cccc3cccnc23)CC1`, the EC50 was over 1 µM (DRD2; receptor activation, agonist, Tango β-arrestin).
For `Cc1[nH]c(C)c(S(=O)(=O)Nc2ccc(C3(C)CCO3)c(Cl)c2)c1C(=O)N1CCC(F)(F)C1` (stereo not drawn), the IC50 was over 100 µM (DRD2).
`CCn1c(-c2nc3ccc(C(=O)N4CCCC(N)C4)cc3n2C)cc2ccccc21` (stereo not drawn) gave an IC50 of 31.6 µM (DRD2; antagonist, GTPγS LEADseeker).
`Cc1[nH]c(C)c(S(=O)(=O)Nc2ccnc3c(C(F)(F)F)cccc23)c1C(=O)N1CCC(F)(F)C1` has an IC50 of over 100 µM (DRD2).
The Ki of `CNC(=O)[C@@]12C[C@@H]1[C@@H](n1cnc3c(NC)nc(C#Cc4cccs4)nc31)[C@H](O)[C@@H]2O` is reported as over 10 µM (DRD2; radioligand binding (PDSP)).
`Cc1[nH]c(C)c(S(=O)(=O)Nc2ccc(C(=O)C3CC3)c(Cl)c2)c1C(=O)N1CCC(F)(F)C1` has an IC50 of over 100 µM (DRD2).
`Cc1cccc(C(=O)NCN2CCN(c3ccccc3C#N)CC2)c1` gave a Ki of 0.041 ± 0.0044 µM (D(2) dopamine receptor (DRD2, Homo sapiens, UniProt P14416, F110L/V111M); binding; COS-7 membranes; mutant receptor, together with: [3H]methylspiperone 0.5 nM).
